# Published values of several laboratories.
# Parts stem from different laboratories: compare values within a part only.

# Block 1
# Target: RNA binding protein fox-1 homolog 2, RRM domain, GST-SBP tag (RBFOX2, Homo sapiens, UniProt O43251-10, residues 100-194)
# Technique: RNA Bind-n-Seq
# Molecule type: RNA
# Sample: in vitro
# Concentration: 365 nM
# Setting: natural RNA segment, single round, ends assumed
# Baseline: no-protein control
# Direction: higher = stronger binding
# Shared flanks, not repeated: GGGAGUUCUACAGUCCGACGAUC … UGGAAUUCUCGGGUGCCAA
# Residues (chain): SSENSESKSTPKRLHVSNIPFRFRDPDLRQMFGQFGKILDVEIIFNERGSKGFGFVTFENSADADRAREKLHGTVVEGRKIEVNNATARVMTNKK
Strand,RBNS enrichment (R)
GCACUGCUUUUGUAUGUGAUCUUGCAACAAACUCAGAAAUGGCUCCUUCCCAGCCCUACUGAAAAGCUUGUUUCUGGGGCCUCCUUCACGGAUUCAUAUGGUACCUUCCU,4.1
GCCUGCCCACCCUUCGCACAUACACCCGUGGCAGGGAGUGUGGAACUGAAGACUGGCUGGAGGCACUGCAGAAGCAGCCCUUGGCUUUCUACUCCCACACUUGCUUGUGA,0.811
UUUGCCUUUGAUUUCCUACCACUGUCUGAGCUAUCAUAAAGCAUUCUCUUUAGUUGUGAUUUGAUUCUAUAGUCUGUUUCUAAAUGACAUUUGUCUGUUUCUUAAAUGAU,0.935
CCUGCGGGUCGCACCCCAGGCAUACUGAAAGGCCAUACUCGUGGCUGGCUGCCUGCGGGCCUAAGCCUUCCCAGGAUCUUCAGGACACUUGACAGACUUGUGUUUUCUGG,0.385
CAACCUUUCCUCUUUGUUCUGAGGGACACGGACACGGGGGCCCUCCUCUUCAUAGGCAGAAUCCUGGACCCCAGUAGUACUUAAUGUCUCAGUGCUCUACAGAACCCCCA,0.374
UUAUUUCAUAGCACCAGUAUUCAGGCUUUCAUGAACAUCAUUUUGGGGGAGCAAGACUUCAUCUGUAUGUACAUUCAGAGUCUUCCCAUAGCUCUUAAACCGUGUGGGUG,0.313

# Block 2
# Target: Interferon regulatory factor 7, full length, phosphomimetic (IRF7, Homo sapiens, UniProt Q92985, residues 1-503, S471D/S472D/S475D/S476D/S477D/S483D/S484D/S487D)
# Technique: protein-binding microarray
# Molecule type: double-stranded DNA, one strand shown
# Sample: in vitro
# Concentration: 2200 nM top
# Setting: 60-bp whole probe
# Added: salmon DNA 0.4 mg/ml
# Baseline: random background probes
# Direction: higher = stronger binding
# Residues (chain): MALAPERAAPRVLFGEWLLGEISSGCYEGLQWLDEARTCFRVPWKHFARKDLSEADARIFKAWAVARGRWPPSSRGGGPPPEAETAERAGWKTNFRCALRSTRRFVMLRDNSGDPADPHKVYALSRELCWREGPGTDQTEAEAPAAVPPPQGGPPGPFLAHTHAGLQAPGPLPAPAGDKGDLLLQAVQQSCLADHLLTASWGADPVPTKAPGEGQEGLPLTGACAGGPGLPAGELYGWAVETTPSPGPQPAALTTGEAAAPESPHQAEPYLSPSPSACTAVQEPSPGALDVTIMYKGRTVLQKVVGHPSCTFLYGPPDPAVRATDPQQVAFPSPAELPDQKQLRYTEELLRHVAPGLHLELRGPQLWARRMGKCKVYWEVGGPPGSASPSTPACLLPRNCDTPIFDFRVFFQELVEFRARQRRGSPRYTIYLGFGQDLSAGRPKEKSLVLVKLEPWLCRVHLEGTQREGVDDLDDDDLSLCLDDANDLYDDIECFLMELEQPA
Strand,fitted relative affinity [z-score]
GCCTAGCACTTAGGTATCCTACTACTTTAGTGCTAGGTCTTGATTCGCTTGACGCTGCTG,0.607
GCCTAGCACCTCCCTCAGGGTTTCAGATGGTGCTAGGTCTTGATTCGCTTGACGCTGCTG,-0.134
GCCTAGCACATAGATATCAGTTTCGATTAGTGCTAGGTCTTGATTCGCTTGACGCTGCTG,5.96
GCCTAGCACTGATGACTGGAGTCTGGACTAGTGCTAGTCTTGATTCGCTTGACGCTGCTG,-0.294

# Block 3
# Target: Histone acetyltransferase KAT6A, winged helix 2, GST fusion (KAT6A, Homo sapiens, UniProt Q92794, residues 85-181)
# Technique: protein binding microarray
# Molecule type: double-stranded DNA, one strand shown
# Sample: in vitro
# Concentration: not given
# Setting: 8-mer, flanks averaged, mean of 2 arrays, mostly near background
# Baseline: not given
# Direction: higher = stronger binding
# Target sequence (chain): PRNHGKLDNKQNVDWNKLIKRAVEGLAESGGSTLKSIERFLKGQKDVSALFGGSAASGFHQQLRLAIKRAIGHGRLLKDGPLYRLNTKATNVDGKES
Strand,E-score
AACTAAGG,0.017
GTATCCGA,0.0327
GCGTAGCA,0.0711
AGCTATGC,0.0735
ATACACTA,-0.175

# Other studies, line by line
Molecule,target,assay,system,conditions,how to read,endpoint,result
"PhoQ, residues 284 288 289 292 302 303 NLMGRA","PhoP, residues 12 14 15 18 19 SQCLL (Escherichia coli, UniProt P23836)","Sort-seq, item: YFP reporter",E. coli,"PhoQ-PhoP variant library, added: 10 µM Mg2+","baseline: high Mg2+ state, higher = stronger signaling",fold induction,12.8

# Some of these lines once more (block 1):
Strand,RBNS enrichment (R)
UUUGCCUUUGAUUUCCUACCACUGUCUGAGCUAUCAUAAAGCAUUCUCUUUAGUUGUGAUUUGAUUCUAUAGUCUGUUUCUAAAUGACAUUUGUCUGUUUCUUAAAUGAU,0.935
